Published values of several laboratories.
Each line is one published result; not all experiments were run side by side. * marks the point of attachment.
mvfR: mvfR fragment (Pseudomonas aeruginosa)
Polyprotein P1234 nsP2 protease domain: Polyprotein P1234, nsP2 protease domain (Chikungunya virus, UniProt Q8JUX6)
Sequence of UniProt Q8JUX6 (whole entry, looked up): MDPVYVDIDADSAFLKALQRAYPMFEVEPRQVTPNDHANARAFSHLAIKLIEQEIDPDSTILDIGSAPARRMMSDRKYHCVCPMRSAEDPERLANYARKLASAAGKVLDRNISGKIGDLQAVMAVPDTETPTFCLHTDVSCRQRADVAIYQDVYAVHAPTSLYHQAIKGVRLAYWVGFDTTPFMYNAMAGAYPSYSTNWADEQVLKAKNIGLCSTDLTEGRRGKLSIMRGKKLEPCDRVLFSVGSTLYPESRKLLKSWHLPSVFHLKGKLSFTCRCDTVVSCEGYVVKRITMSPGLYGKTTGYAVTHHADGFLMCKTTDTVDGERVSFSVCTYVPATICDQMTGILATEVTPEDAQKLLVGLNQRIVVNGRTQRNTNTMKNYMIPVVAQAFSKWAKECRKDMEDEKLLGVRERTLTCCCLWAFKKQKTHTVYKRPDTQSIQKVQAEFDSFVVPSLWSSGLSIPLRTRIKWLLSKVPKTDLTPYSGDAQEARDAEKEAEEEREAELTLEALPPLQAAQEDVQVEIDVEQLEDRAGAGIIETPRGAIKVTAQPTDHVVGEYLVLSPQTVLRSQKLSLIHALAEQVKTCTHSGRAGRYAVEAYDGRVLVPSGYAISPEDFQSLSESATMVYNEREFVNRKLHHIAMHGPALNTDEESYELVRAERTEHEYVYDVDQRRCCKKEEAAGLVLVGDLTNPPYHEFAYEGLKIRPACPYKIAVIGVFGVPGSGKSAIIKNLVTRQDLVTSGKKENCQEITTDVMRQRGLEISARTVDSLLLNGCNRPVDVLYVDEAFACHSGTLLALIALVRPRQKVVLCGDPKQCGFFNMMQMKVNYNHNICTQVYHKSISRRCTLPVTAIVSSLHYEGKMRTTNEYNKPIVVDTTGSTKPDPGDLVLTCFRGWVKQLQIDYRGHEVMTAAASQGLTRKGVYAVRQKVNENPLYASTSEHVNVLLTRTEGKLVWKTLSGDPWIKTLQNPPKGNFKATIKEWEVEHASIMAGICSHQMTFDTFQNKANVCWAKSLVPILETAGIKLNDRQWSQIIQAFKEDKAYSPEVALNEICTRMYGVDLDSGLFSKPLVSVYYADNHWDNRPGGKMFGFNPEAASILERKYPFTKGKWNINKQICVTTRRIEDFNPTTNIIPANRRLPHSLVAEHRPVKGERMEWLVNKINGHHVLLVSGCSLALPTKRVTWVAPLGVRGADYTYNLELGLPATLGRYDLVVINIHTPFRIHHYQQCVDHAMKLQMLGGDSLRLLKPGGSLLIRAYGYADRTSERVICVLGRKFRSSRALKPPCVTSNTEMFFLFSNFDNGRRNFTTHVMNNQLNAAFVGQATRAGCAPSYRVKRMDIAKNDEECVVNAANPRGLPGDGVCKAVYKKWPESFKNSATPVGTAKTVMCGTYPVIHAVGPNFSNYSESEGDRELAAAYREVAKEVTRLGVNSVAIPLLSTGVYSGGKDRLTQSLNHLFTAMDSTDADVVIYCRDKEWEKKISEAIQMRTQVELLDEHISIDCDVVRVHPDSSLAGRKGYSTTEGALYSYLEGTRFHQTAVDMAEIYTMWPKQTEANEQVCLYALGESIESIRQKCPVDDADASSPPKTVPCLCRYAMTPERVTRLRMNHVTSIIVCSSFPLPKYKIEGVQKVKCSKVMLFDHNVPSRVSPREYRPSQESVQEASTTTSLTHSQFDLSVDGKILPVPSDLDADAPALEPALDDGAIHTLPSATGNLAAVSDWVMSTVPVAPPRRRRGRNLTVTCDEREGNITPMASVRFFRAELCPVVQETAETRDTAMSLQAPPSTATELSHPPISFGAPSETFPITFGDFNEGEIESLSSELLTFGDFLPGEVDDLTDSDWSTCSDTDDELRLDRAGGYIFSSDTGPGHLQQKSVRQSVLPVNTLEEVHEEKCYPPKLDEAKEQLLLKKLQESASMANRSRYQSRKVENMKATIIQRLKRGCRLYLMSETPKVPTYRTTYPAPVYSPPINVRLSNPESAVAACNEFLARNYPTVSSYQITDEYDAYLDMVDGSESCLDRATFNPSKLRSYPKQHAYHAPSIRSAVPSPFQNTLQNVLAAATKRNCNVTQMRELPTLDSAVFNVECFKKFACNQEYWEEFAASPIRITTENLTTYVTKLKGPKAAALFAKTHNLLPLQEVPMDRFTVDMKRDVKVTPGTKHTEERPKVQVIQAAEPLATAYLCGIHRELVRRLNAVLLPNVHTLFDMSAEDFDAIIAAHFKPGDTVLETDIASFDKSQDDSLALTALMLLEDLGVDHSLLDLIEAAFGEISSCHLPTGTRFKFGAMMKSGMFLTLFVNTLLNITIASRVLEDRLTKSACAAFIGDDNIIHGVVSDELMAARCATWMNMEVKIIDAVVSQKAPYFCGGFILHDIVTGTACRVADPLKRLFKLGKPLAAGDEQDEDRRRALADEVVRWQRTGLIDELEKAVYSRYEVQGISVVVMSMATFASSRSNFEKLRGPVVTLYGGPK
ORF1 3C-like protease: ORF1, 3C-like protease (Southampton virus, UniProt Q04544)
Sequence of UniProt Q04544 (whole entry, looked up): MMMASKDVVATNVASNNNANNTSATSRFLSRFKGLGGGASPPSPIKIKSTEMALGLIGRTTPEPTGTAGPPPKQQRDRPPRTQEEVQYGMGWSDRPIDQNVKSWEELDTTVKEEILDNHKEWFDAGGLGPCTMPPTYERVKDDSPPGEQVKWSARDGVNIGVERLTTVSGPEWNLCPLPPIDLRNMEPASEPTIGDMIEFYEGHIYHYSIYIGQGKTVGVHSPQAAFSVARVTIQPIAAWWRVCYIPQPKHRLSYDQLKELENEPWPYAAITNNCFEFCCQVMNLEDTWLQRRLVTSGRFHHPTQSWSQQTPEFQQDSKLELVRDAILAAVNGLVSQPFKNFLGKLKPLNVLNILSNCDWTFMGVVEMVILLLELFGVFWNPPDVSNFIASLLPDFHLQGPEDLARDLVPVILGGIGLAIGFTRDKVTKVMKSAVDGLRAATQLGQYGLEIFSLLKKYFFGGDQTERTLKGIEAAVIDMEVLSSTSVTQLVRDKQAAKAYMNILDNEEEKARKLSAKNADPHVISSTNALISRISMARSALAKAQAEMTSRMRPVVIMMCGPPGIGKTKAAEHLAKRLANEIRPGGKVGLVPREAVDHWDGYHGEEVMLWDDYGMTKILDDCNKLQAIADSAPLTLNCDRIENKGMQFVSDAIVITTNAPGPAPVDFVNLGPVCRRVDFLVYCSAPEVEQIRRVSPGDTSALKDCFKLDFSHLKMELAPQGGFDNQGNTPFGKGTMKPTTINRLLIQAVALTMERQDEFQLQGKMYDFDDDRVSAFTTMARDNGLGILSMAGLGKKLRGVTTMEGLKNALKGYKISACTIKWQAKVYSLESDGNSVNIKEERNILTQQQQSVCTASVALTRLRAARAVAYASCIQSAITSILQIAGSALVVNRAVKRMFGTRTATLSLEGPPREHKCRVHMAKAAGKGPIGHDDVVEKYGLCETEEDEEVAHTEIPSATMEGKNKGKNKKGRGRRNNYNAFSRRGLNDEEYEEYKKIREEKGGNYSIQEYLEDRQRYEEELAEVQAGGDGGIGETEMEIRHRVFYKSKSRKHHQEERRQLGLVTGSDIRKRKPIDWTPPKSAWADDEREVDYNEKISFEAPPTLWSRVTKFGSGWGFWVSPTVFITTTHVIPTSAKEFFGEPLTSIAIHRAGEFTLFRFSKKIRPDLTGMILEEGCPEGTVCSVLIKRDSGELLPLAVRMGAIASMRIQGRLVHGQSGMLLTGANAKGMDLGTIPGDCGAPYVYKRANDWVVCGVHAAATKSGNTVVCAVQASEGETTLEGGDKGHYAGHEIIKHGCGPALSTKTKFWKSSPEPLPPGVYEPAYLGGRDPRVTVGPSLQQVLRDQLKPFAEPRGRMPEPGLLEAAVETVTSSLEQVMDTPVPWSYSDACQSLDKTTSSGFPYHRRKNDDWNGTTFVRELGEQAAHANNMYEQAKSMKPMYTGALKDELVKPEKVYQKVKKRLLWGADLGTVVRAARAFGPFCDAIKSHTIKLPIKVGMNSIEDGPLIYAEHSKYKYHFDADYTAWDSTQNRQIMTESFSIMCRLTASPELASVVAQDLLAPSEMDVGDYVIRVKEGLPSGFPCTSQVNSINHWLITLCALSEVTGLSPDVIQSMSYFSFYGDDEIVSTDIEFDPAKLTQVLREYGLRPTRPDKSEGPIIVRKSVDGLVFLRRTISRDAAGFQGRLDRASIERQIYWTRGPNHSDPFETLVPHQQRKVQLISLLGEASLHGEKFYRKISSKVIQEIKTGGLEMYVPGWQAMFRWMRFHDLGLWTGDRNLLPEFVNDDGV
B1: PA0254 (Pseudomonas aeruginosa, UniProt Q9I6N5); chain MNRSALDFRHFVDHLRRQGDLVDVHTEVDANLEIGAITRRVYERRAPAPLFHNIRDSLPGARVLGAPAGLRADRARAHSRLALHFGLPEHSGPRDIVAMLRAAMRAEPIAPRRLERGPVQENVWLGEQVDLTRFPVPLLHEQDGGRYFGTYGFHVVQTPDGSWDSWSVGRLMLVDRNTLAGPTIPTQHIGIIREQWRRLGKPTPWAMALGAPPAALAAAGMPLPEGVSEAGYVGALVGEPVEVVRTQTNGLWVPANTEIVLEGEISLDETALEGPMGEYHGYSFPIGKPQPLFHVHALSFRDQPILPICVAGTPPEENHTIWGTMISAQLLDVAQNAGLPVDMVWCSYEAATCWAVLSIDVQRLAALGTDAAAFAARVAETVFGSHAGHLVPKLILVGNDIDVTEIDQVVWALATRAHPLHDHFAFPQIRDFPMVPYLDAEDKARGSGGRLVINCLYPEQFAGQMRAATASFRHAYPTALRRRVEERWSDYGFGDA
Sequence of UniProt P9WNW7 (whole entry, looked up): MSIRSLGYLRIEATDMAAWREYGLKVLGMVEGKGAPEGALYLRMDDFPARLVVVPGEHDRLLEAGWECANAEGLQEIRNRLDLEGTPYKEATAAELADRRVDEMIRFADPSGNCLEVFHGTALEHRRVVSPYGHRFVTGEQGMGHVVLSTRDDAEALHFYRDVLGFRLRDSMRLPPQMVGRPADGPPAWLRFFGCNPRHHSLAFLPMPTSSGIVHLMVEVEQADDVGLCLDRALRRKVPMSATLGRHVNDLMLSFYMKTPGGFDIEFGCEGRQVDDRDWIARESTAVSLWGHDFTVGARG

TGCTACTCCTTGCATTGCCAGCGCCCGGCTCTTCCAGGCGCTCACCCCCGTGCCCGAGGGATTTCGGTTCGCATCCAGGCTGGCCCGACGGCTTTCCGGCGTTTCGTCGCCTCGGGAAGACACATCGGGTGATACCGGATTATAAAAGACTAATCCTACGTCTTTTAAAGATTTGTCCGATCTGCGGTGTCATGCAACTAGTGGCGTTGTGCCTTCCTTGACAAGCCTTGCGGCATGCCACAAGAATTTTGCCAACCTTTCGAGTCATCCAATATTCATCAATGGCTCCTACAAGATCCG (dsDNA (Pseudomonas aeruginosa)) — binding (mvfR; EMSA; double-stranded DNA, one strand shown): no binding
MEASGVNYQNMNKQTT — inhibition (Polyprotein P1234 nsP2 protease domain; protease activity, FRET; peptide; 50 µM, 30 min, pH 7.5, 37 °C): no inhibition
BM2 transmembrane peptide (Influenza B virus) — pKa (solid-state NMR, refers to: His19; VM+ membrane pellets; 243 K, membrane-bound tetramer, no drug, first protonation): 6.1
B1 (PA0254) — Km (O=C(O)c1ccc[nH]1; steady-state kinetics; pH 6, apparent): 4300 µM
hsaC (Mycobacterium tuberculosis, UniProt P9WNW7) — Km (Cc1ccc(O)c(O)c1CC[C@@H]1C(=O)CC[C@]2(C)C(=O)CC[C@@H]12; steady-state kinetics; pH 7.5, 25 °C): 1.6 µM
Ac-EFQLQ-pNA (N-acetyl, C-pNA; pNA = O=[N+]([O-])c1ccc(N*)cc1) — Km (ORF1 3C-like protease; substrate, pNA substrate cleavage; pH 8.5): 300 µM
GGAAATCACCGTATTCGCGGAGGGCGCGCAATGAAAGGCTTCCTCAACTTCTTCGCGCGCTGGGTGGTGCCGGTGCTCGGCCTGCTCGCCCTGAGCCTGATCATCTGGTTCCTCGGCCCGCTGCTGCGCCTGGGCAACTACGAACCGTTGGCCTCGGCGACCAGCCGCTGGGTGCTGATCGTCCTGCTGTTCCTGGTCTGGATCGGCTTCCGCGTGCTGCGCATCGTGCAGGCCCGGCGCAACGCGGCGAAGGTCATGCAGAGTCTCGCCGAG (dsDNA (Pseudomonas aeruginosa)) — binding (mvfR; EMSA; double-stranded DNA, one strand shown): binds
YISPQYYGETWVTTIG — inhibition (Polyprotein P1234 nsP2 protease domain; protease activity, inhibitor, FRET; peptide; 50 µM, 30 min, pH 7.5): ~30%
Ac-DEFQLQ-pNA (N-acetyl, C-p-nitroanilide; pNA = O=[N+]([O-])c1ccc(N*)cc1) — Km (ORF1 3C-like protease; substrate, pNA substrate cleavage; pH 8.5): 800 µM

For quick reference, copied from above:
BM2 transmembrane peptide (Influenza B virus) — pKa (solid-state NMR, refers to: His19; VM+ membrane pellets; 243 K, membrane-bound tetramer, no drug, first protonation): 6.1
